Published values collected from several papers.
Each numbered part is a random draw from the data of one study; scales do not carry over between parts. Positions count from the first letter of the parent shown.

Series 1 — method: aptamer microarray, sandwich; form: DNA with 2'F-ANA; sample: in vitro; tested at: 200 nM; together with: Cy3 exosite-II aptamer, 400 nM; reading: higher = stronger binding; strand: GGTTGGTGTGGTTGG
Target: Prothrombin, mature alpha-thrombin (F2, Homo sapiens, UniProt P00734)
Notes: whole 15-mer aptamer, many near background
| Modification | mean fluorescence intensity [a.u.] |
| --- | --- |
| 2'F-ANA at 1 2 3 4 5 7 8 9 11 12 13 | 73.7 |
| 2'F-ANA at 1 2 4 7 8 9 11 12 14 | 57.4 |
| 2'F-ANA at 2 3 4 11 13 14 15 | 235 |
| 2'F-ANA at 1 3 5 6 7 8 9 11 13 14 | 74.2 |
| 2'F-ANA at 1 2 3 4 6 7 9 10 14 15 | 54.1 |
| 2'F-ANA at 1 3 4 7 9 10 12 13 14 15 | 57.3 |
| 2'F-ANA at 1 4 5 6 8 9 10 12 14 15 | 50.3 |
| 2'F-ANA at 2 6 8 9 11 | 363 |
| 2'F-ANA at 1 2 3 4 5 8 9 11 12 13 14 15 | 48.1 |
| 2'F-ANA at 1 2 6 7 8 12 13 | 317 |
| 2'F-ANA at 1 4 5 7 8 10 12 13 14 15 | 45.6 |
| 2'F-ANA at 1 2 4 5 6 7 12 13 14 15 | 46.6 |
| 2'F-ANA at 2 3 4 8 9 10 11 13 | 192 |
| 2'F-ANA at 1 3 4 6 9 12 13 | 207 |
| 2'F-ANA at 1 3 7 11 12 13 | 433 |
| 2'F-ANA at 4 6 8 9 10 11 14 | 53.9 |

Series 2 — method: RNA Bind-n-Seq; form: RNA; sample: in vitro; tested at: 365 nM; baseline: no-protein control; reading: higher = stronger binding
Target: RNA binding protein fox-1 homolog 2, RRM domain, GST-SBP tag (RBFOX2, Homo sapiens, UniProt O43251-10, residues 100-194)
Notes: natural RNA segment, single round, ends assumed
Target sequence (chain): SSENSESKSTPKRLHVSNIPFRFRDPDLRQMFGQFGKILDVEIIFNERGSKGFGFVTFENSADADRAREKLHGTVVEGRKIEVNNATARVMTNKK
| Strand | RBNS enrichment (R) |
| --- | --- |
| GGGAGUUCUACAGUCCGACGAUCCCAGGGUCCCAGCUGGCUGGGUCCUCUUCUGCCCCCAGUGCCCUUCCCCUUGGGCUGUGUUGGAGUGAGCACCUCCUCUGUAGGCACCUCUCACACUGUUGUCUGUUACUUGGAAUUCUCGGGUGCCAA | 0.963 |
| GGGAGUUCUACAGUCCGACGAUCGCUGUUAGAGAGUGCCAUGAGUGGAAAAUACCUGCACGAUGACUUCGCCCUGCCCUGCCCACCGGGGCUGAAAAUUCCUGAGGAAGAUGGUUACACCAUCACCCCCAACAUGGAAUUCUCGGGUGCCAA | 1.95 |
| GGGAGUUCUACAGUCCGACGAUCCCAGAAGGCAGCUGGAGCAGGGCCUGGGAGCCACAGCAGGGGUAGCUUGAGUUCUGUGCUCAGCCUCUGCAGGGGAUGUCAAACUCAGUAUGGGGUUUGUGCUAUGUGGAUGGAAUUCUCGGGUGCCAA | 1.19 |
| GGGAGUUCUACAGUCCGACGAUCGAGGGGUUAAUGUGAGGCCUUUUUGAAAAAUGAAUAUUUUGAUAAAAAGAAUUCUUGUUUUAGCACAGUUGAUGCACAUAAGUGAUUCUCAUAUUUGUUGUAUAAACUGGUGGAAUUCUCGGGUGCCAA | 0.493 |
| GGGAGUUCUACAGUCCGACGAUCAUUGAAAGGUUGCGAUGGCAACCAGCCUCCAGCCAUGCAGGCCUGUUUUUAGAGAGAUGGGUCUCUCUGAGGAGGUCUGUCUCCCUGCUGUACAAUGCCUUUUAAACCUUUGGAAUUCUCGGGUGCCAA | 0.336 |
| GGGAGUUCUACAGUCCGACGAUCUCCUCGGAAGAUGCACUGUGCUGUUUGAAAACAUGUAGCCGUUUAAGGCUAGAGUAUUUUAUAUAAAUAGAAGAGCUUAGGUCCUGAAGACCAAGGCAGAUAGAUGCAGCUGGAAUUCUCGGGUGCCAA | 0.51 |
| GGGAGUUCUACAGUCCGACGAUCCGGUGCCCCUCCCCAUCUCCCCGUGCCUGUAUCUAAUAUAUAAAUAUAGAGAUGUGUAUAUGGAUGAGCCUGCCUCUGUCUGUGUAUGUCGACGCGACCCCAGCAUACCGUGGAAUUCUCGGGUGCCAA | 0.604 |
| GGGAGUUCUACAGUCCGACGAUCCUGUGUAUGGAAGAGACAGGUGACCGCUCCAGGUUGGGUGCUCACAGAACCCUUUUCCUGACUCUCAUGGAAGAUGGUGGAAGGAAAAUAGACUGUCUCAUCAACCCUCCUGGAAUUCUCGGGUGCCAA | 0.664 |
| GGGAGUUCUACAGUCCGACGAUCGCUGUGACAAUGCACCAUAUUGAAGGGGUUAUCCUGUUAAUGCUCAUUUUUUCCUCUAAUUCAUAACUUACUGAAUUUUUAUGGAAAAUGUCAGCAUCUGUUCUAUCAGUUGGAAUUCUCGGGUGCCAA | 0.321 |

Series 3 — method: RNA Bind-n-Seq; form: RNA; sample: in vitro; tested at: not given; notes: RNA with constant flanks, ends assumed; baseline: input RNA pool; reading: higher = stronger binding
Target: RING finger protein unkempt homolog, zinc fingers 1-6, GST-SBP tag (UNK, Homo sapiens, UniProt Q9C0B0, residues 30-357)
Construct (chain): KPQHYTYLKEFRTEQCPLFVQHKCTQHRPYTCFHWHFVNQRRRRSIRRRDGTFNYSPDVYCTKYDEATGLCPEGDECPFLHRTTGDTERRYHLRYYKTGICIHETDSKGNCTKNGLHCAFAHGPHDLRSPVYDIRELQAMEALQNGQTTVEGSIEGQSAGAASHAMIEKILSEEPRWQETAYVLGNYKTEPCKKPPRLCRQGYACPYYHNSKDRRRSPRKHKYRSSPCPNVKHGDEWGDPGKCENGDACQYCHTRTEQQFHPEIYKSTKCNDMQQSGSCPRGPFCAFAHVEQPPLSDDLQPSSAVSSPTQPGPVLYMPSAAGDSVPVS
| Strand | bound/input enrichment [ratio] |
| --- | --- |
| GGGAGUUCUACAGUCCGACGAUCAAGAAGAAGCAAGGUGAAGAUAACUCUACUGCACAGGACACAGAAGAAUUAGAAAAAGAGAUCCGAGAAGACCUUCCAGUGAAUACCUCUAAAACCCGUCCAAAACAGGAAAAAGCUUUUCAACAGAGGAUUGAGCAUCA | 0.619 |
| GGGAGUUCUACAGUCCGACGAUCUAUUUUCUAUUUAGUCUGUAUAUUUUGUUCUUCAUAGUCUGUUUUUUCUAGCAUGCUUGAUUCCGGAGAGAAUAAAGGGCUAUAUAAUAAUAAAUCCAGAUUUCCGGAUAAGAAUAUUGCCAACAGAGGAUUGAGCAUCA | 28.3 |
| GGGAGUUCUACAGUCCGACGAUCUGCACAGGCCUCACAGUGCGUCUGGCCGGCGCUUUAUAGCUGCAGCCUGGGCGGCUCCGCCCGCUGUUUUUCGUCUUCCCUAGGCUAUUUCUGCCGGGCGCUCCGCGAAGAUGCAGCUCACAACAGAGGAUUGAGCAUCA | 0.124 |
| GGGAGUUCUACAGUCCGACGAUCAUAUAGACCUAUGAUGUACAGGUACAACAUGUAUAGGUUACGUAGAUAUUAUGAGAAAUUUCCGUUUAUUGUGAGUACUCCAGUUGCUUUAAAAACCACCAGGGUGAUUUGCUGCUGGCUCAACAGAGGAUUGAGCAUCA | 2.39 |
| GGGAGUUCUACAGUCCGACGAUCGAGUAGUUGAUAGUUGCACUCCCAGUCAUUGAAUUGCUUCUGUGUUUCCCUGUAGGUCCACCGUAACCCUUUGUCAGUCUUACACAUUUGUAAGGACCCUGCAAGACAGCAACAACGACUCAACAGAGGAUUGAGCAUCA | 0.279 |
| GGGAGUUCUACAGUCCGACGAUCUUUGGAUCUCGCUUACAAGAAACCUUUUCGUUGGACCUUCUCAAAACUGCAUUUAUCAACCGCUGCUACAUCAAAAGCGAAGAGGCGAAACGUCAGAGCCUUGGCAUAGAGAAAGAAGCUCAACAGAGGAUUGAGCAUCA | 0.644 |
| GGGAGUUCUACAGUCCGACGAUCCUGUAUUGACCAAAGCUUUCAGUUGUUCUUCAUUCUGUGCUCAGGAUUGAAAUGCUGCGCCGACGUUGUGUUGUUAGUGCUGGGCACGGAUUCUGGGACGGUGAGCUGUUGAUUUCCUAACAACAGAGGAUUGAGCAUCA | 0.082 |
| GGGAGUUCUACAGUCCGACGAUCAGUCCACUGAUGCAGUGCUCAUUUUACAAUAGAUCAUCUCCUGUACACAUCAUAGCCACCCGCAAAAGUUUACAUUCCUAUGCACGCCCUCCACCAGUGUCCUCUUCUUCGAAGAGUGAACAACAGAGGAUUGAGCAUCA | 0.405 |
| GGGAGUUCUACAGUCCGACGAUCAAGCAUGAACGCAUUGAAAACGAUGUUGCCACCAUCCUGUCUCGCCGUAUUGCUGUUGAAUACCGUGAUUCGGAAGAUGAUUCAGAAUUUGAUGAAGUAGAUUGGUUGGAGUAAGAAAAACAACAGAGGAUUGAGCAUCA | 0.25 |
| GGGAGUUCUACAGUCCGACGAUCUGUUGGGGGUGGGUAUAAAAGAUGGGGUCUGUAAAAUCUUUUUUUCUUAGAAAUUCAUUUACCCGUUAUGUAGAAAUGGUUGUAUUAGAUGUUCUCUAUCAUUUAAUAAUAUACUUGUGGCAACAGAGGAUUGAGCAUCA | 4.88 |
| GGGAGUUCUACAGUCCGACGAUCAAGAUCCUCUCGGUAAAUGGCCAAGAUCUGAAGAACCUGCUGCACCAAGAUGCUGCCGACCUCUUCCGUAAUGCGGGAUGUGCUGUGUCCCUGAGAGUACAGCACAGGUUGCUGGUUGUUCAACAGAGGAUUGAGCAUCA | 0.135 |

Series 4 — target: XBP1, bZIP domain (human); method: DHFR protein complementation; sample: yeast; baseline: wild-type JUN-FOS pair; reading: higher = stronger binding
Notes: single substitutions, most at no-binding floor
Parent: JUN, bZIP domain (human); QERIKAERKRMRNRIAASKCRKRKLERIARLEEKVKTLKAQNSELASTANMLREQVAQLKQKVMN; partner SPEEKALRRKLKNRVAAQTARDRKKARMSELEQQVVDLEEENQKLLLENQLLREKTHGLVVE
| Variant | binding fitness |
| --- | --- |
| A29I | -0.94 natural log |
| N42P | -1.44 natural log |
| K34Y | -1.05 natural log |
| A40T | -0.902 natural log |
| Q55R | -0.845 natural log |
| E54I | -1.42 natural log |
| K34N | -1.45 natural log |
| A29M | -1.29 natural log |
| L45I | -1.54 natural log |
| T37S | -0.736 natural log |
| Q41N | -1.4 natural log |
| L59S | -0.42 natural log |
| S43H | -0.601 natural log |
| V35S | -1.44 natural log |
| Q55G | -1.27 natural log |
| M51T | -0.706 natural log |
| Q41S | -1.53 natural log |
| L52C | -1.5 natural log |
| L31D | -1.44 natural log |
| I28Y | -1.2 natural log |
| L52M | -1.09 natural log |
| E32H | -1.42 natural log |
| L31W | -1.34 natural log |
| A46I | -0.588 natural log |
| A57L | -1.11 natural log |

Some of these lines once more (series 4):
| Variant | binding fitness |
| --- | --- |
| Q55G | -1.27 natural log |
| M51T | -0.706 natural log |
| Q41S | -1.53 natural log |
| L52C | -1.5 natural log |
| L31D | -1.44 natural log |
| I28Y | -1.2 natural log |
| L52M | -1.09 natural log |
| E32H | -1.42 natural log |
| L31W | -1.34 natural log |
